Experimental data gathered from unrelated publications.
Each line is one published result; not all experiments were run side by side. Values joined by “and” are separate records of one study, mostly repeats; a detail may differ. ± marks the error that the study gave.
Grm2: Metabotropic glutamate receptor 2 (Grm2, Rattus norvegicus, UniProt P31421)
Lysophospholipase-like protein 1: Lysophospholipase-like protein 1 (Mus musculus, UniProt Q3UFF7)
RPA1 N-terminal domain: Replication protein A 70 kDa DNA-binding subunit, N-terminal domain (RPA1, Homo sapiens, UniProt P27694)
GLP1R: Glucagon-like peptide 1 receptor (GLP1R, Homo sapiens, UniProt P43220)

By UniProt entry, the sequences of proteins in these tests, tags left out. Residues count along the entry.
UniProt P31421, 19-872 limits assumed: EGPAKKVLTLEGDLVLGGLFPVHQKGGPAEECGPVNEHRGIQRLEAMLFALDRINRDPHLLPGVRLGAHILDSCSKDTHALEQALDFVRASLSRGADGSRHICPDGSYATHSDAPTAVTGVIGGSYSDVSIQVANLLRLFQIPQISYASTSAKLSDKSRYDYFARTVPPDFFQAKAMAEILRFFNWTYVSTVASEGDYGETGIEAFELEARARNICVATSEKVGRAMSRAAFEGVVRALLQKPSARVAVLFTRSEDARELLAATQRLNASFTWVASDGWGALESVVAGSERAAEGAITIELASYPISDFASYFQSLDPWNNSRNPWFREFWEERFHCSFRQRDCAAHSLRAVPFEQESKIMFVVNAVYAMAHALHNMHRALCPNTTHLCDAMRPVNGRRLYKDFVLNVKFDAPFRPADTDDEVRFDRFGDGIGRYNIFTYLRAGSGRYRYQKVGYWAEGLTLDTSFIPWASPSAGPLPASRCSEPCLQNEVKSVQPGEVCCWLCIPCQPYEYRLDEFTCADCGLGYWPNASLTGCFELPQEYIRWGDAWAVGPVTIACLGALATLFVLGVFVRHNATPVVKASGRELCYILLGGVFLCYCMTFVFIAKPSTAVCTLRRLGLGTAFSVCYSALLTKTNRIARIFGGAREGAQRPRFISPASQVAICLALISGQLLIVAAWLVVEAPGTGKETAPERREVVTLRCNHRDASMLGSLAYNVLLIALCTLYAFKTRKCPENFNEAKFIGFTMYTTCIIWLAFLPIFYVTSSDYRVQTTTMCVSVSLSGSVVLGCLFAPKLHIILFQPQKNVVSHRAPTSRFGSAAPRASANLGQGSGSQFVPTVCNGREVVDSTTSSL
UniProt Q3UFF7, whole entry: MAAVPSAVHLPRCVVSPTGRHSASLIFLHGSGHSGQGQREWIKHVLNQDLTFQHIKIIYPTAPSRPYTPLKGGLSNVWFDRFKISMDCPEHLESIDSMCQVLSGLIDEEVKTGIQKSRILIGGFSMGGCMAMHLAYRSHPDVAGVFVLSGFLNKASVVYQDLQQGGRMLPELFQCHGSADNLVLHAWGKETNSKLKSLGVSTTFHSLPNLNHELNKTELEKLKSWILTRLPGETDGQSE
UniProt P43220, whole entry, looked up: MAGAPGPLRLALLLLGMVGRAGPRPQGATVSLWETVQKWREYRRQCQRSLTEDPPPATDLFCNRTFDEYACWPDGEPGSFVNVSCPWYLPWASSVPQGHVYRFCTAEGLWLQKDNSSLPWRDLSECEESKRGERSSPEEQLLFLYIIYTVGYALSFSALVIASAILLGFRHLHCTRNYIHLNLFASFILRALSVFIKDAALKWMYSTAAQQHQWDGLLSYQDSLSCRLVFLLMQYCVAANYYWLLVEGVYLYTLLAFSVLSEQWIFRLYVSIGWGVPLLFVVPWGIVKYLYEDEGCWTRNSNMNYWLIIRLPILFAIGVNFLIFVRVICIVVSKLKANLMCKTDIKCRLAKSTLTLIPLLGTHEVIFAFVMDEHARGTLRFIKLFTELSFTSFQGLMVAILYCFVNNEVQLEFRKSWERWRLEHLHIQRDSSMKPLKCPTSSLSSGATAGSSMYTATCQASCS
UniProt Q99797, 36-713 limits assumed: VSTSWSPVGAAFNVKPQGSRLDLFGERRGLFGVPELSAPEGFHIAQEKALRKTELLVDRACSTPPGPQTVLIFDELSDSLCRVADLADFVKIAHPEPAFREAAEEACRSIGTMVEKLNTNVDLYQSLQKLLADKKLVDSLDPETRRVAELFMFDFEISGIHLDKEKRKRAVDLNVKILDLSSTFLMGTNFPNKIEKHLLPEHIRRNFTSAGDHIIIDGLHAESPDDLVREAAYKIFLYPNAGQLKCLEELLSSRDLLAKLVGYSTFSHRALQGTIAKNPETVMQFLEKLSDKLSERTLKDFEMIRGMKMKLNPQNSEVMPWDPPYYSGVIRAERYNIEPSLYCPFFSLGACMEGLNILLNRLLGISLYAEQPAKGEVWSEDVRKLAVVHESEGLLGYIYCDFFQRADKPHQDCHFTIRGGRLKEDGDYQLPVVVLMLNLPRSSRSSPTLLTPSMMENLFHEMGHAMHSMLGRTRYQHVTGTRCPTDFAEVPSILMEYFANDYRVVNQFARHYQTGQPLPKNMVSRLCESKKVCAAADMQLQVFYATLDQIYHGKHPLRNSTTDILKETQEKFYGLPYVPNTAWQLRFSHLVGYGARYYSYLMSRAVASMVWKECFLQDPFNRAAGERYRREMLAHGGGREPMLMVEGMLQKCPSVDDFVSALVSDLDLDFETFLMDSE
UniProt Q923Y9, whole entry M268T/N287Y: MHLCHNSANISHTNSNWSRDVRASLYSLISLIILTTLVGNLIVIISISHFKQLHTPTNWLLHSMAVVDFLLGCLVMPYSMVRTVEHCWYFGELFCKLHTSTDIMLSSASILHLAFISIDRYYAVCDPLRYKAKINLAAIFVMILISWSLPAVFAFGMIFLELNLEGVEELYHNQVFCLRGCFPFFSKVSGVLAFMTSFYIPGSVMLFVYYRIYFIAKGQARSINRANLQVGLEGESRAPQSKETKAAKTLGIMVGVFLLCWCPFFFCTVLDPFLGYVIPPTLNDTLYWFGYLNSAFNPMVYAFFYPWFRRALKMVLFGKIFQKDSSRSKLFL
UniProt O15151, 23-111 limits assumed: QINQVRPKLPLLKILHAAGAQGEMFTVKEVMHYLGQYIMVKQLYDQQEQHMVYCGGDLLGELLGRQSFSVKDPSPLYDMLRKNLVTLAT
UniProt P22455, 467-755 limits assumed: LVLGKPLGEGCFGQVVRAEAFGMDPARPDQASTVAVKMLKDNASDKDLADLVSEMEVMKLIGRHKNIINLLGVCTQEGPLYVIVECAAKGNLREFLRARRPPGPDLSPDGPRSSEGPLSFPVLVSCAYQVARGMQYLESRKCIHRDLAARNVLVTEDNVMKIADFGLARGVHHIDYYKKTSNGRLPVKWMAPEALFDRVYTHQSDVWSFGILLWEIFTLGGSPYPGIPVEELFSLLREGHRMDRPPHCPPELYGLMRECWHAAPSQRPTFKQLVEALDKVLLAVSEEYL
UniProt Q9GZT9, whole entry: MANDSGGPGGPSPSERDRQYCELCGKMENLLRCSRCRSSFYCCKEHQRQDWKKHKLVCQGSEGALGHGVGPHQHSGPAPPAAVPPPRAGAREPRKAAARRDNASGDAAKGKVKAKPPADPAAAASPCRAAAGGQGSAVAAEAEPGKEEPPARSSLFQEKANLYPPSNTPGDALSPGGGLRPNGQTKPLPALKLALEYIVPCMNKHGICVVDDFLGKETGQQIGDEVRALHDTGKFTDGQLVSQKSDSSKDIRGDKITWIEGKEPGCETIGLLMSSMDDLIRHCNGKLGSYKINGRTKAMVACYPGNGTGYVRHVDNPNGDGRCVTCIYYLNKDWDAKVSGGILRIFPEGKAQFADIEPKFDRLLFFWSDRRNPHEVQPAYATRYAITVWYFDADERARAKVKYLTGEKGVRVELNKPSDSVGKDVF
UniProt P30291, whole entry: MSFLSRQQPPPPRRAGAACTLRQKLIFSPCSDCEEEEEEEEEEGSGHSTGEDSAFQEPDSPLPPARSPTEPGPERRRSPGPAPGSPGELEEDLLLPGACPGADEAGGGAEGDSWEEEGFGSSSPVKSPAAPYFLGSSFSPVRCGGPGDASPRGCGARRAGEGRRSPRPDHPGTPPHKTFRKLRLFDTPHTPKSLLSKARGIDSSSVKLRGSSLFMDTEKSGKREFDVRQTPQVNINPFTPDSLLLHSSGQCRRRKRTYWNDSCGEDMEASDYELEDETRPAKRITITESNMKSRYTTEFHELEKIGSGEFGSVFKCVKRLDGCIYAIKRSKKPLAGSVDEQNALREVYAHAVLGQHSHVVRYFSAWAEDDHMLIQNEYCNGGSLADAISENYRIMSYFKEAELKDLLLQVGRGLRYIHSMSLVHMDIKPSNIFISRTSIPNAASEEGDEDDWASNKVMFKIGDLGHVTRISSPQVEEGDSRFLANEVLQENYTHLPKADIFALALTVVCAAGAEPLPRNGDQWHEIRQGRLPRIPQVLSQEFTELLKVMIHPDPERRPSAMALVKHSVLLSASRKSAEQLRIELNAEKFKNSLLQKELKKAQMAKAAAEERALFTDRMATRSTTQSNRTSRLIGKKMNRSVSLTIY
UniProt P46934, whole entry, looked up: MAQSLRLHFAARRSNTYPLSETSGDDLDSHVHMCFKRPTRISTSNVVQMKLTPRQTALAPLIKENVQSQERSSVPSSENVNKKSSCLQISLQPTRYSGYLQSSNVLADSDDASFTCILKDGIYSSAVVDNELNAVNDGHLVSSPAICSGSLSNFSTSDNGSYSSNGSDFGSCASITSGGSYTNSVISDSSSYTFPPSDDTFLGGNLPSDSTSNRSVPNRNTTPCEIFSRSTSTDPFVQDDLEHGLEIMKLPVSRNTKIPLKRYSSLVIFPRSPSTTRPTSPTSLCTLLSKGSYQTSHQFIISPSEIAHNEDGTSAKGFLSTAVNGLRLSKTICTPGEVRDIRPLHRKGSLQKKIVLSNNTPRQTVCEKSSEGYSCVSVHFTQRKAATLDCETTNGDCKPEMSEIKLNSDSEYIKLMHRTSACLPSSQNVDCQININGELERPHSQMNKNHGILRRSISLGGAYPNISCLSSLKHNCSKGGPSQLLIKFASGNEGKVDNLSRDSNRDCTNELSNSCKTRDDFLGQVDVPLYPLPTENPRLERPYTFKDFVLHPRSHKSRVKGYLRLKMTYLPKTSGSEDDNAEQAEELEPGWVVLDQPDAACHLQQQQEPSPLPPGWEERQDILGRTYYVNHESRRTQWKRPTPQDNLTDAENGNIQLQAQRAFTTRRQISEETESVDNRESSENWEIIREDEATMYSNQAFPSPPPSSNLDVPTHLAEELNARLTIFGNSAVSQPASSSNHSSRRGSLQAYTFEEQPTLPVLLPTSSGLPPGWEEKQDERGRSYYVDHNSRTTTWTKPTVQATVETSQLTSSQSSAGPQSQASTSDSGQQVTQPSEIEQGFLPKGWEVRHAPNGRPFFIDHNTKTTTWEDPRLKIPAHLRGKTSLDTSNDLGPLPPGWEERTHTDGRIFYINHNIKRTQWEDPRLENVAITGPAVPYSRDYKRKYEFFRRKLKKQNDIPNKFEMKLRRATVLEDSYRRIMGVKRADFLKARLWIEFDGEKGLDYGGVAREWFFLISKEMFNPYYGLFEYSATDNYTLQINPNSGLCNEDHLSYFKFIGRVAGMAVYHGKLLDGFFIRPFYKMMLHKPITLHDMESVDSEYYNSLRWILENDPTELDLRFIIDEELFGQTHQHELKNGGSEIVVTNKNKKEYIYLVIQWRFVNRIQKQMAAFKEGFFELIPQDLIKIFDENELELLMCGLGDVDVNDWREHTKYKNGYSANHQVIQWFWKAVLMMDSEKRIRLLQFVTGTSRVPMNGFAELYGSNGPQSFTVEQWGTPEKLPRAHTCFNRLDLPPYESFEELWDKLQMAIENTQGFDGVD
UniProt Q2M2I8, whole entry: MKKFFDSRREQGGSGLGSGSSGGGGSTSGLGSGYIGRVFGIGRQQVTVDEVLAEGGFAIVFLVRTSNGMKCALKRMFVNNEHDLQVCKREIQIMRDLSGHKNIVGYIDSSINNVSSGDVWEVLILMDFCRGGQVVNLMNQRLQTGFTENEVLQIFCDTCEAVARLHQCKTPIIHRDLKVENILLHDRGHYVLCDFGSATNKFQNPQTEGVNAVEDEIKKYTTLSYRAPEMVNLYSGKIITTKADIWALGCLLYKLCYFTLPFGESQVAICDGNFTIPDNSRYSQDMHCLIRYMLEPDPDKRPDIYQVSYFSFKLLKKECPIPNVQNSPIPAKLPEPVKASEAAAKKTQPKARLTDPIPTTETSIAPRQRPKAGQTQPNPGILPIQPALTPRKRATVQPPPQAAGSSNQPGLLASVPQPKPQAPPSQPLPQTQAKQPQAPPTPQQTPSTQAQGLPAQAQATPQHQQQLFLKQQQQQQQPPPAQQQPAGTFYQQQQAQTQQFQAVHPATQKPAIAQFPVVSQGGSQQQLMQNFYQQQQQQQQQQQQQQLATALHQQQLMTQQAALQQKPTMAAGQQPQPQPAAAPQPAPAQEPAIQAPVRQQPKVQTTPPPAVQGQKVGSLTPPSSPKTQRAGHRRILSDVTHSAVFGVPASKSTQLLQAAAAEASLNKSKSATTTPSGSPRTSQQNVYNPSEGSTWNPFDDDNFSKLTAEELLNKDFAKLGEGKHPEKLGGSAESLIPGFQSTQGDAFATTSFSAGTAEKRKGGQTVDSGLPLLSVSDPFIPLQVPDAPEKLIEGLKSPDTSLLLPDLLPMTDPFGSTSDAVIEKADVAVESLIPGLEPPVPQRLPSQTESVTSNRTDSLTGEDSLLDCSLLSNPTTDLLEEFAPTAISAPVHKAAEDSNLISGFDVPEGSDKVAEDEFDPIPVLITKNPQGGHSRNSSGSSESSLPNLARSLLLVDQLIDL
UniProt P07900, 1-236 S52A limits assumed: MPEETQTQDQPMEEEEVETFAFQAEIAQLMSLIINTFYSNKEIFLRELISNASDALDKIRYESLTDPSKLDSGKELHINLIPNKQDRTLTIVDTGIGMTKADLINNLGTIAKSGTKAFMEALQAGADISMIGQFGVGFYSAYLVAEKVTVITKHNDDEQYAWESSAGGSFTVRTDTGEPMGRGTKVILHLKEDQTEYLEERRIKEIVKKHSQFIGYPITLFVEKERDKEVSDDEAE
UniProt P05067, 672-713 limits assumed: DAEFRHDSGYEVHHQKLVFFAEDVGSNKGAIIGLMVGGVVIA

SMILES | target or system | test | system | conditions | scale | quantity | value
COC(=O)c1ccc(NC(=O)CSc2nc3ccc(OC)cc3[nH]2)cc1 | FPR1 (Homo sapiens, UniProt P21462) | calcium mobilization, agonist | transfected HL-60 cells | concentration not given |  | activity class | active
C[C@H](NC(=O)[C@H](CCCCN)NC(=O)CNC(=O)CNC(=O)[C@@H](NC(=O)[C@@H](NC(=O)[C@H](Cc1c[nH]c2ccccc12)NC(=O)c1ccccc1N)[C@@H](C)O)[C@@H](C)O)C(=O)N[C@@H](CCCCNc1ccc([N+](=O)[O-])cc1[N+](=O)[O-])C(N)=O | Mitochondrial intermediate peptidase (MIPEP, Homo sapiens, UniProt Q99797) | substrate, FRET peptide hydrolysis |  |  |  | kcat/Km | 530 M⁻¹ s⁻¹
NCC(c1ccc(O)cc1)c1ccc(Oc2ccccc2)cc1 (stereo not shown) | Trace amine-associated receptor 1 (Rattus norvegicus, UniProt Q923Y9, M268T/N287Y) | cAMP production, agonist |  | double mutant | relative to: wild type | efficacy decrease | 44 to 85%
CC(C)Oc1cc(C#N)ccc1C1=N[C@@H](c2cccc(Cl)c2)[C@@H](c2ccc(Cl)cc2)N1C(=O)N1CCNC(=O)C1 | Protein Mdm4 (MDM4, Homo sapiens, UniProt O15151) | isothermal titration calorimetry |  | 298 K |  | ΔG | -8.6 ± 0.2 kcal/mol
Cc1ccnc(NC(=O)c2ccc(-c3nn([C@@H]4CCCN(C(=O)C5CC5)C4)c4ncnc(N)c34)cc2)c1 | Tyrosine-protein kinase BTK, non-phosphorylated (BTK, Homo sapiens, UniProt Q06187) | TR-FRET binding kinetics |  | 37 °C, unphosphorylated enzyme |  | residence time | 3.9 ± 0.3 min
CCOC(=O)C1=C(C)NC2=C(C(=O)CC(C)(C)C2)C1c1ccc(OCC(=O)NN=Cc2cccc(C=O)c2)cc1OCC(=O)NN=Cc1cccc(C=O)c1 (stereo not shown) | Listeria monocytogenes |  | NCTC 5348 | concentration not given, 24 h |  | inhibition zone diameter | 5.6 ± 0.2 mm
CN1CCN(Cc2ccc3c(c2)c(=O)c(C(N)=O)cn3-c2ccc(F)cc2)CC1 | Grm2 | calcium mobilization, negative allosteric modulator |  | 30 µM, together with: glutamate 100 µM | relative to: glutamate maximum | response | 1.15 ± 0.32%
COc1ccc(NC(=O)CN2CCCN(S(=O)(=O)c3ccc(Cl)c(Cl)c3)CC2)c(OC)c1 | GRM4 (Homo sapiens, UniProt Q14833) | calcium mobilization, positive allosteric modulator | CHO cells with Gqi5 | together with: glutamate | relative to: PHCCC maximal response | maximal response | 24.3 ± 1.5%
CC(=O)Nc1ncc(CN2CC[C@H](Oc3cccc(F)n3)C[C@@H]2C)s1 [isotope labelled] | Protein O-GlcNAcase (OGA, Homo sapiens, UniProt O60502) | radioligand binding | human Alzheimer's disease, postmortem cortex homogenate | dose not given | relative to: non-demented control brain | binding potential increase | ~40%
Nc1nc(SCc2ccc(Cl)cc2)nn1S(=O)(=O)c1ccc(-c2ccccc2)nc1 | Lysophospholipase-like protein 1 | activator, gel-based ABPP, FP-rhodamine | HEK293 overexpressing Lysophospholipase-like protein 1 | 10 µM |  | activation | 5%
COC(=O)[C@@]1(C)C=C(C(=O)Nc2cccc(C(=O)NC34CC(Nc5nccc(-c6cccnc6)n5)(C3)C4)c2)C(=O)CC1 | MAPK9 (Homo sapiens, UniProt P45984) | enzyme activity, inhibitor |  | 4.938 µM |  | remaining activity | 0.0639 fraction of control
O=C(OC(C(F)(F)F)C(F)(F)F)N1Cc2ccc(OCC(F)F)cc2C1 | FAAH (Homo sapiens, UniProt O00519) | enzyme activity, inhibitor, fluorescence AAMCA substrate |  | 1 µM |  | activity | inactive
Cc1ccc(C(=O)Nc2cc(Br)ccc2C(=O)O)cc1S(=O)(=O)Nc1ccc(Br)cc1 | RPA1 N-terminal domain | binding, fluorescence polarisation competition |  | together with: FITC-ATRIP probe |  | ligand efficiency | 0.22
COc1cc([C@@H]2c3cc4c(cc3C=C(C=O)[C@H]2C(=O)OCCCn2cnc3c(Cl)ncnc32)OCO4)cc(OC)c1OC | Leishmania infantum | Alamar Blue | HepG2 |  | relative to: CC50 HepG2 over EC50 amastigotes | selectivity index | 1.3
Cc1[nH]c2cc(Cl)cc(Cl)c2c1CCn1cc(CNC(N)=O)nn1 | GLP1R | cAMP accumulation, positive allosteric modulator, HTRF |  | 0.6 µM, crude reaction product, together with: GLP-1(9-36) at EC20 | relative to: BETP | Emax | 85.6%
Cn1c(=O)oc2ccc(S(=O)(=O)n3nc(SCc4ccc(Cl)cc4)nc3N)cc21 | Lysophospholipase-like protein 1 | activator, gel-based ABPP, FP-rhodamine | HEK293 overexpressing Lysophospholipase-like protein 1 | 10 µM |  | activation | 78%
Nc1ncc(-c2ccc3ncnc(N4CCc5cc(F)c(Cl)cc54)c3c2)cn1 |  |  | CD1 mouse, plasma | oral, 100 mg/kg |  | dose-normalised AUC(0-t) | 265 mg·h/mL

SMILES | target or system | test | system | conditions | scale | quantity | value
CC(=O)N1CCN(c2ccc(Nc3ncc4c(n3)N(C)C(=O)N(c3cc(NC(=O)c5cccc(C(F)(F)F)c5)ccc3C)C4)cn2)CC1 | FGFR4/Transcription factor ETV6 (Homo sapiens, UniProt P22455+P41212) | cell proliferation | Ba/F3 TEL-FGFR4 | 72 h |  | GI50 | 15 nM
O=C(O)c1ccnc(C(=O)O)c1Nc1ccc(F)cc1F | Egl nine homolog 1 (EGLN1, Homo sapiens, UniProt Q9GZT9) | inhibitor, HTRF |  | 400 µM |  | remaining activity | 100%
COc1ccccc1-c1cc(C(F)(F)F)nc(S(C)(=O)=O)n1 | Secretin receptor (SCTR, Homo sapiens, UniProt P47872) | cAMP accumulation, positive allosteric modulator | CHO-K1 overexpressing target | together with: secretin-family peptide mix at EC10-EC20 | relative to: EC95 of peptide mix | Emax | 49 ± 18%
O=C1CCC(N2Cc3cc(-c4nc5ccccn5c4Nc4ccccc4)ccc3C2=O)C(=O)N1 (stereo not shown) | WEE1/CRBN (Homo sapiens, UniProt P30291+Q96SW2) | degrader, HiBiT | Jurkat | 5 h |  | Dmax | 78%
CC(=O)NCCCC[C@H](NC(C)=O)C(=O)Nc1ccc2c(C)cc(=O)oc2c1 | HDAC8 (Homo sapiens, UniProt Q9BY41) | deacetylation, substrate |  | 25 °C, together with: 150 nM enzyme |  | kcat | 0.07 ± 0.02 s⁻¹
CCOC(=O)/C=C/CNCCCCN1c2ccccc2CCc2ccc(Cl)cc21 | E3 ubiquitin-protein ligase NEDD4 (Homo sapiens, UniProt P46934) | inhibitor, Ub-TR-FRET |  | 100 µM, 1 h preincubation, HECT domain, together with: ATP 2 mM | higher = more ubiquitination | ubiquitination TR-FRET signal AUC | 8150 a.u. and 9730 a.u. and 10100 a.u. and 12600 a.u. and 9320 a.u. and 11000 a.u.
COC(=O)[C@@H]1C(c2nc3cc(C(F)(F)F)ccc3s2)=Cc2cc3c(cc2[C@H]1c1cc(OC)c(OC)c(OC)c1)OCO3 | Leishmania infantum | Alamar Blue | HepG2 |  | relative to: CC50 HepG2 over EC50 amastigotes | selectivity index | > 2.4
CC(C)n1nnc(-c2cccc(Nc3ncnn4ccc(CN5CCC(N)CC5)c34)c2)n1 | AAK1 (Homo sapiens, UniProt Q2M2I8) | enzyme activity, inhibitor |  |  | relative to: 2 | potency fold increase | 7 fold
Cc1ncsc1-c1ccc([C@H](C)NC(=O)[C@@H]2C[C@@H](O)CN2C(=O)[C@@H](NC(=O)CCCCCCC(=O)N2CCN(C[C@]3(C)CCC(c4ccc(Cl)cc4)=C(CN4CCN(c5ccc(C(=O)NS(=O)(=O)c6ccc(N[C@H](CCN7CCOCC7)CSc7ccccc7)c(S(=O)(=O)C(F)(F)F)c6)cc5)CC4)C3)CC2)C(C)(C)C)cc1 |  | item: Cdkn2a | naturally aged mice, lung | intraperitoneal, 5 mg/kg every 3 days |  | mRNA level | no effect
Cc1ccc(C(=O)Nc2ccccc2C(=O)O)cc1S(=O)(=O)Nc1ccc(C(C)C)cc1 | RPA1 N-terminal domain | binding, fluorescence polarisation competition |  | together with: FITC-ATRIP probe |  | ligand efficiency | 0.17
C/C=C/Cn1c(Cc2cc(OC)c(OC)c(OC)c2)nc2c(N)ncnc21 | Heat shock protein HSP 90-alpha, N-terminal domain (HSP90AA1, Homo sapiens, UniProt P07900, S52A) | isothermal titration calorimetry, one-site model |  | concentration not given, 298 K, N-terminal domain S52A |  | binding stoichiometry | 1.16 ± 0.11
Cc1[nH]c2cc(Cl)cc(Cl)c2c1CCn1cc(CCCN)nn1 | GLP1R | cAMP accumulation, positive allosteric modulator, HTRF |  | 0.6 µM, crude reaction product, together with: GLP-1(9-36) at EC20 | relative to: BETP | Emax | 90.3%
Nc1nc(SCc2ccc(Cl)cc2)nn1S(=O)(=O)c1ccoc1 | Lysophospholipase-like protein 1 | activator, gel-based ABPP, FP-rhodamine | HEK293 overexpressing Lysophospholipase-like protein 1 | 10 µM |  | activation | 49%
Cc1ccc(C(=O)Nc2cc(F)ccc2C(=O)O)cc1S(=O)(=O)Nc1cccc(Cl)c1 | RPA1 N-terminal domain | binding, fluorescence polarisation competition |  | together with: FITC-ATRIP probe |  | ligand efficiency | 0.21
NC(=O)c1cn(-c2ccc(F)cc2)c2ccc(CCc3ccccc3)cc2c1=O | Grm2 | calcium mobilization, negative allosteric modulator |  | 30 µM, together with: glutamate 100 µM | relative to: glutamate maximum | response | 2.07 ± 1.38%
O=C(O)c1cc(C(=O)N[C@@H](Cc2c[nH]c3ccccc23)C(=O)O)cc([C@H]2CCN[C@@H]2C(=O)O)c1 | Grik2 (Rattus norvegicus, UniProt P42260) | radioligand binding | Sf9 membranes | 10 µM, homomeric receptor, together with: [3H]kainate |  | specific binding | 90 ± 6%
O=C(/C=C/c1ccc(O)c(OC(F)(F)F)c1)C1=C(/C=C/c2ccc(O)c(OC(F)(F)F)c2)OCCC1 | APP (Homo sapiens, UniProt P05067) | SDS-PAGE western blot, item: Aβ1-42 species 75-200 kDa |  | 30 µM, 24 h, 37 °C, together with: Aβ 10 µM | relative to: DMSO control | Aβ band density | 7330 ± 908%

A few entries again:
SMILES | target or system | test | system | conditions | scale | quantity | value
Cc1ccc(C(=O)Nc2ccccc2C(=O)O)cc1S(=O)(=O)Nc1ccc(C(C)C)cc1 | RPA1 N-terminal domain | binding, fluorescence polarisation competition |  | together with: FITC-ATRIP probe |  | ligand efficiency | 0.17
C/C=C/Cn1c(Cc2cc(OC)c(OC)c(OC)c2)nc2c(N)ncnc21 | Heat shock protein HSP 90-alpha, N-terminal domain (HSP90AA1, Homo sapiens, UniProt P07900, S52A) | isothermal titration calorimetry, one-site model |  | concentration not given, 298 K, N-terminal domain S52A |  | binding stoichiometry | 1.16 ± 0.11
Cc1[nH]c2cc(Cl)cc(Cl)c2c1CCn1cc(CCCN)nn1 | GLP1R | cAMP accumulation, positive allosteric modulator, HTRF |  | 0.6 µM, crude reaction product, together with: GLP-1(9-36) at EC20 | relative to: BETP | Emax | 90.3%
Nc1nc(SCc2ccc(Cl)cc2)nn1S(=O)(=O)c1ccoc1 | Lysophospholipase-like protein 1 | activator, gel-based ABPP, FP-rhodamine | HEK293 overexpressing Lysophospholipase-like protein 1 | 10 µM |  | activation | 49%
Cc1ccc(C(=O)Nc2cc(F)ccc2C(=O)O)cc1S(=O)(=O)Nc1cccc(Cl)c1 | RPA1 N-terminal domain | binding, fluorescence polarisation competition |  | together with: FITC-ATRIP probe |  | ligand efficiency | 0.21
